Experimental data collected from several papers.
Protocols differ between the studies behind these lines. pKi: −log10 of the molar value.
Target: Carbonic anhydrase 9 (CA9, Homo sapiens, UniProt Q16790)

COCCOc1cc2ncnc(Nc3cccc(-c4cn(Cc5ccc(C(=O)NCCc6ccc(S(N)(=O)=O)cc6)cc5)nn4)c3)c2cc1OCCOC has a pKi of 6.37 (enzyme activity, inhibitor, stopped-flow).
CC(=O)Nc1ccc(S(=O)(=O)N2CCN(C(=O)c3cc4ccccc4oc3=O)CC2)cc1 has a pKi of 5.17 (enzyme activity, inhibitor, stopped-flow).
The pKi of NS(=O)(=O)c1ccc(Nc2nc3nccc(-c4ccc5ccccc5c4)n3n2)cc1 is reported as 7.24 (enzyme activity, inhibitor, stopped-flow).
For COc1ccccc1/C=N/NC(=O)CSc1nc2ccccc2c(=O)n1CCc1ccc(S(N)(=O)=O)cc1, the pKi was 8.05 (enzyme activity, inhibitor, stopped-flow).
With COCCOc1cc2ncnc(Nc3cccc(-c4cn([C@H]5C[C@H](n6cc(C)c(=O)[nH]c6=O)O[C@@H]5CO)nn4)c3)c2cc1OCCOC the pKi was 5.84 (enzyme activity, inhibitor, stopped-flow).
NS(=O)(=O)c1ccc(N/N=C2\C(=O)N(CC(=O)Nc3ccccc3Cl)c3ccccc32)cc1 has a pKi of 6.17 (enzyme activity, inhibitor; with preincubation).
The pKi of COc1cccc(/C(C)=N/NC(=O)CSc2nc3ccccc3c(=O)n2CCc2ccc(S(N)(=O)=O)cc2)c1 is reported as 7.26 (enzyme activity, inhibitor, stopped-flow).
COc1cc(-c2ccnc3nc(Nc4ccc(S(N)(=O)=O)cc4)nn23)cc(OC)c1OC gave a pKi of 7.13 (enzyme activity, inhibitor, stopped-flow).
The pKi of COCCOc1cc2ncnc(Nc3cccc(-c4cn(Cc5ccc(S(N)(=O)=O)cc5)nn4)c3)c2cc1OCCOC is reported as 7.70 (enzyme activity, inhibitor, stopped-flow).
COc1cc2ccc(=O)oc2cc1OC1OC(COC2OCC(O)(CO)C2O)C(O)C(O)C1O (centres unmarked) gave a pKi of 7.11 (enzyme activity, inhibitor).
With NS(=O)(=O)c1ccc(N/N=C2\C(=O)N(CC(=O)Nc3ccccc3Br)c3ccccc32)cc1 the pKi was 6.40.
For COc1cccc(/C=N/NC(=O)CSc2nc3ccccc3c(=O)n2CCc2ccc(S(N)(=O)=O)cc2)c1, the pKi was 7.62 (enzyme activity, inhibitor, stopped-flow).
For COCCOc1cc2ncnc(Nc3cccc(-c4cn(-c5cccc(S(N)(=O)=O)c5)nn4)c3)c2cc1OCCOC, the pKi was 7.74 (enzyme activity, inhibitor, stopped-flow).
For COc1ccc(NC(=O)CN2C(=O)/C(=N\Nc3ccc(S(N)(=O)=O)cc3)c3ccccc32)cc1, the pKi was 6.22 (enzyme activity, inhibitor; with preincubation).
